Measured values collected from several papers.
Compare with care: the assays were run in different laboratories. ± marks the error that the study gave.

| SMILES | target or system | test | test system | setting | how to read | measurement | value |
| --- | --- | --- | --- | --- | --- | --- | --- |
| CC(=O)Nc1ccc2ccn(-c3cc(NS(C)(=O)=O)n4ncc(C#N)c4n3)c2c1 | CSNK2A1 and CSNK2A2, human | inactive, NanoBRET | – | 10 µM | – | activity | inactive |
| CC(C)C[C@@H]1NC(=O)[C@H](Cc2ccc(O)cc2)NC(=O)[C@H](CC(N)=O)NC(=O)[C@H](CO)NC(=O)[C@@H](NC(=O)[C@@H]2CCCN2C(=O)[C@H](CC(N)=O)NC(=O)[C@@H](N)Cc2ccc(O)cc2)CSC1=O | AgrC-III | GFP reporter | Staphylococcus epidermidis, agr group-III reporter | 10 µM | – | AgrC-III inhibition | inactive |
| CC(=O)N[C@@H](CNC(=O)c1cc(NC(=O)c2cc(NC(=O)c3cc(NC(=O)c4nccn4C)cn3C)cn2C)cn1C)CC(=O)Nc1cn(C)c(C(=O)Nc2cc(C(=O)Nc3cc(C(=O)Nc4cc(C(=O)NCCCN(C)CCCNC(=O)c5cccc(C(=O)O)c5)n(C)c4)n(C)c3)n(C)c2)n1 | androgen response element DNA duplex | DNA binding | – | 2 µM, pH 7.0 | – | Tm | 76 °C |
| O=C1c2ccccc2N(Cc2ccc(F)cc2)C12CCCC2 | butyrylcholinesterase | – | – | 10 µM | – | remaining activity | 83.7 ± 1.02% |
| O=C(CCCCCCC(=O)Nc1ccccc1N=Nc1ccccc1)NO | class I HDACs, human | enzyme activity | HeLa nuclear extract | – | – | trans over cis activity ratio | ~3 |
| CC(=O)N[C@H]1CNC(=O)c2cc(cn2C)NC(=O)c2cc(cn2C)NC(=O)c2cc(cn2C)NC(=O)c2nc(cn2C)NC(=O)C[C@@H](NC(C)=O)CNC(=O)c2cc(cn2C)NC(=O)c2cc(cn2C)NC(=O)c2cc(cn2C)NC(=O)c2nc(cn2C)NC(=O)C1 | androgen response element DNA duplex | DNA binding | – | 2 µM, pH 7.0 | – | Tm | 82 °C |
| CC(C)C[C@@H]1NC(=O)[C@H](CCCNC(=N)N)NC(=O)[C@H](CCCCN)NC(=O)[C@H](CC(=O)O)NC(=O)[C@H](CCCCN)NC(=O)[C@@H](CO)NC1=O | MMP-14, human | – | PANC-1 ADAM8-expressing | 1 µM, 24 h | reference: vehicle | enzyme activity | decreased |
| COC[C@@H](NC(C)=O)C(=O)NCc1ccc(OCc2cccc(Cl)c2)cc1 | rat voltage-gated sodium channels | whole-cell patch clamp | rat embryonic cortical neurons | 10 µM | – | V1/2 of activation | -40.4 ± 6.8 mV |
| CNc1ccccc1C(=O)O[C@H]1C[C@H](n2cnc3c(N)ncnc32)O[C@@H]1COP(=O)(O)OP(=O)(O)O | chicken myosin Va G440A FlAsH | – | – | 25 °C | reference: wild type, slower than wild type | slow phase release rate | 10 fold |
| CC(=O)NCCCC[C@@H](NC(=O)[C@@H](N)Cc1ccc(O)cc1)C(=O)N[C@@H](Cc1ccccc1)C(=O)NCC(=O)N[C@@H](Cc1ccc(O)cc1)C(=O)N1CCC[C@H]1C(=O)N[C@@H](CO)C(N)=O | mu opioid receptor | radioligand binding | – | – | reference: IC50 delta over IC50 mu | selectivity ratio | 15 |
| Cc1cc(Nc2nc(C[C@@]3(C(=O)O)CCN(Cc4cccc(Cl)c4F)[C@H](C)C3)cc(C)c2F)[nH]n1 | AURKA (Thr288 phosphorylation), mouse | AURKA phosphorylation, inhibitor, item: phospho-AURKA Thr288 | mouse, NCI-H446 xenograft, tumour | oral, 5 mg/kg single dose, 1 h | – | inhibition | 73% |
| Cl.Cl.Cl.Cl.Cl.Cl.Cl.Cl.Cl.Cl.Cl.Cl.NC[C@@H]1O[C@H](O[C@H]2[C@@H](O)[C@H](O[C@@H]3[C@@H](O)[C@H](N)C[C@H](N)[C@H]3O[C@H]3O[C@H](CN)[C@@H](O)[C@H](O)[C@H]3N)O[C@@H]2Cn2cc(COCCCCCCCCCCCCOCc3cn(C[C@H]4O[C@@H](O[C@@H]5[C@@H](O)[C@H](N)C[C@H](N)[C@H]5O[C@H]5O[C@H](CN)[C@@H](O)[C@H](O)[C@H]5N)[C@H](O)[C@@H]4O[C@H]4O[C@@H](CN)[C@@H](O)[C@H](O)[C@H]4N)nn3)nn2)[C@H](N)[C@@H](O)[C@@H]1O | HIV-1 TAR RNA | UV thermal denaturation | – | 1 molar equivalents to RNA, pH 6.8, TAR RNA 1 µM per strand | reference: RNA alone, higher is more stabilization | ΔTm | 3.3 °C |
| CN[C@](C)(C[18F])C(=O)O | DU-145 tumour model | – | host not given, blood | 15 min, tumour-bearing | – | tracer uptake | 3.1 %ID/g |
| CN(CCCNC(=O)c1cccc(C(=O)O)c1)CCCNC(=O)c1cc(NC(=O)c2cc(NC(=O)c3cc(NC(=O)c4nc(NC(=O)C[C@@H](N)CNC(=O)c5cc(NC(=O)c6cc(NC(=O)c7cc(NC(=O)c8nccn8C)cn7C)cn6C)cn5C)cn4C)cn3C)cn2C)cn1C | androgen response element DNA duplex | DNA binding | – | 2 µM, pH 7.0 | – | Tm | 78.4 °C |
| CCO[C@H]1[C@H](O)[C@@H](N)[C@@H](O[C@H]2[C@H](O[C@@H]3O[C@H](CO)[C@@H](O[C@H]4O[C@@H](CN)[C@@H](O)[C@H](O)[C@H]4N)[C@H]3O)[C@@H](O)[C@H](N)C[C@@H]2N)O[C@@H]1CO | rabbit reticulocyte ribosome | luciferase translation, cell-free translation | rabbit reticulocyte lysate | – | – | IC50 | 37.6 ± 14.1 µg/mL |
| CC[C@H](C)[C@@H]1NC(=O)[C@H](Cc2ccc(O)cc2)NC(=O)[C@@H](N)CSSC[C@@H](C(=O)N2CCC[C@H]2C(=O)N2CCC[C@H]2C(=O)NCC(N)=O)NC(=O)[C@H](CC(N)=O)NC(=O)[C@H](CCC(N)=O)NC1=O | titi monkey oxytocin receptor | membrane hyperpolarization, agonist | CHO | – | reference: compound over vasopressin | potency ratio | ~10 |

| SMILES | target or system | test | test system | setting | how to read | measurement | value |
| --- | --- | --- | --- | --- | --- | --- | --- |
| CC(=NNC(N)=S)c1ccc2ccccc2c1.CC(=NNC(N)=S)c1ccc2ccccc2c1.[Cl][Co][Cl] | calf thymus DNA | fluorescence competition | – | together with: ethidium bromide | – | apparent binding constant | 3980 M⁻¹ |
| CC[C@H](C)[C@H](NC(=O)[C@@H](NC(=O)[C@@H](NC(=O)[C@H](CCCNC(=N)N)NC(=O)[C@@H](N)CCCCN)C(C)C)C(C)C)C(=O)N[C@@H](CC(N)=O)C(=O)N[C@@H](CCCCN)C(=O)N[C@@H](CC(=O)O)C(=O)N[C@H](C(=O)O)[C@@H](C)O | Mamu-A2*01:02 (Chinese rhesus macaque) | MHC binding, purified MHC | – | – | – | IC50 | > 20000 nM |
| Cc1ccc(C(C)C)cc1.F[P-](F)(F)(F)(F)F.[Cl][Ru-]1[NH2+]CC[NH2+]1 | calf thymus DNA | thermal denaturation | – | 0.5 equivalents per DNA, 1 h, pH 7.39, 25 °C, 50 mM NaClO4 | – | delta Tm | -0.6 °C |
| CC1CCCCCCCCCCCCC(=O)C1 (stereo not shown) | odorant-binding protein 3 (Manis javanica) | competitive binding | – | pH 7.4 | – | IC50 | 2230 ± 800 nM |
| O=C1c2ccccc2N(Cc2cccc(Cl)c2)C12CCCC2 | butyrylcholinesterase | – | – | 10 µM | – | remaining activity | 72.4 ± 9.17% |
| NC(=O)[C@H](CO)NC(=O)[C@@H]1CCCN1C(=O)[C@H](Cc1ccc(O)cc1)NC(=O)CNC(=O)[C@H](Cc1ccccc1)NC(=O)[C@@H](CCCNC(=O)CBr)NC(=O)[C@@H](N)Cc1ccc(O)cc1 | mu opioid receptor | radioligand binding | – | – | reference: IC50 delta over IC50 mu | selectivity ratio | 3110 |
| Cl.Cl.Cl.Cl.Cl.Cl.Cl.Cl.Cl.Cl.Cl.Cl.NC[C@@H]1O[C@H](O[C@H]2[C@@H](O)[C@H](O[C@@H]3[C@@H](O)[C@H](N)C[C@H](N)[C@H]3O[C@H]3O[C@H](CN)[C@@H](O)[C@H](O)[C@H]3N)O[C@@H]2Cn2cc(CCCc3cn(C[C@H]4O[C@@H](O[C@@H]5[C@@H](O)[C@H](N)C[C@H](N)[C@H]5O[C@H]5O[C@H](CN)[C@@H](O)[C@H](O)[C@H]5N)[C@H](O)[C@@H]4O[C@H]4O[C@@H](CN)[C@@H](O)[C@H](O)[C@H]4N)nn3)nn2)[C@H](N)[C@@H](O)[C@@H]1O | HIV-1 TAR RNA | UV thermal denaturation | – | 1 molar equivalents to RNA, pH 6.8, TAR RNA 1 µM per strand | – | Tm | 78.2 °C |
| CCN(CCCCOc1ccc(CCC(=O)N2CCC(Cc3ccccc3)CC2)cc1OC)Cc1ccccc1 | butyrylcholinesterase | dilution reversibility | – | 0.1 × IC50, start of monitoring | reference: uninhibited enzyme | remaining activity | 50.4% |
| NC(=O)[C@H](CO)NC(=O)[C@@H]1CCCN1C(=O)[C@H](Cc1ccc(O)cc1)NC(=O)CNC(=O)[C@H](Cc1ccccc1)NC(=O)[C@@H](CCCCNC(=O)CBr)NC(=O)[C@@H](N)Cc1ccc(O)cc1 | mu opioid receptor | radioligand binding | CHO cells | together with: 1 nM [3H]DAMGO | – | IC50 | 5.23 ± 2.31 nM |
| Cl.Cl.Cl.Cl.Cl.Cl.Cl.Cl.Cl.Cl.Cl.Cl.NC[C@@H]1O[C@H](O[C@H]2[C@@H](O)[C@H](O[C@@H]3[C@@H](O)[C@H](N)C[C@H](N)[C@H]3O[C@H]3O[C@H](CN)[C@@H](O)[C@H](O)[C@H]3N)O[C@@H]2Cn2cc(COCCCCCCCCOCc3cn(C[C@H]4O[C@@H](O[C@@H]5[C@@H](O)[C@H](N)C[C@H](N)[C@H]5O[C@H]5O[C@H](CN)[C@@H](O)[C@H](O)[C@H]5N)[C@H](O)[C@@H]4O[C@H]4O[C@@H](CN)[C@@H](O)[C@H](O)[C@H]4N)nn3)nn2)[C@H](N)[C@@H](O)[C@@H]1O | HIV-1 TAR RNA | UV thermal denaturation | – | 1 molar equivalents to RNA, pH 6.8, TAR RNA 1 µM per strand | – | Tm | 74.3 °C |
| NC(=O)[C@H](CO)NC(=O)[C@@H]1CCCN1C(=O)[C@H](Cc1ccc(O)cc1)NC(=O)CNC(=O)[C@H](Cc1ccccc1)NC(=O)[C@@H](CCCCN=C=S)NC(=O)[C@@H](N)Cc1ccc(O)cc1 | mu opioid receptor | radioligand binding | – | – | reference: IC50 delta over IC50 mu | selectivity ratio | 255 |
| N=C(N)NCCC[C@H](N)C(=O)N1CCC[C@H]1C(=O)N[C@@H](CCCCN)C(=O)N1CCC[C@H]1C(=O)N[C@@H](CCC(N)=O)C(=O)N[C@@H](CCC(N)=O)C(=O)N[C@@H](Cc1ccccc1)C(N)=O | MRGPRX2, human | Ca2+ mobilization, agonist, Fura-2 | LAD2 IgE-sensitized | 37 °C | – | EC50 | 38700 nM |
| CCC(=O)C[C@@H](O)C[C@@H](C)C[C@H](NC(=O)[C@@H]1C[C@H](C)CN1C(=O)/C=C/[C@@H](C)CC)C(=O)N[C@H](C(=O)NC(C)(C)C(=O)N[C@@H](CC(C)C)C(=O)N[C@@H](CC(C)C)C(=O)NC(C)(C)C(=O)NC(C)(C)C(=O)NCCC(=O)N[C@@H](C)CNC)[C@H](O)C(C)C | mTORC1 | inhibitor, immunoblot | MDA-MB-453 | 100 nM, 2 h | – | 4E-BP1 activation | decreased |
| O=C1c2cc(Cl)ccc2NC12CCCC2 | butyrylcholinesterase | – | – | 10 µM | – | remaining activity | 73.6 ± 4.5% |
| CCCCCCCC/C=C\CCCCCCCC(=O)Oc1cccc(SSC[C@H](N)C(=O)N[C@@H](Cc2ccc(O)cc2)C(=O)NCC(=O)N[C@@H](C)C(=O)N[C@@H](CCCCN)C(N)=O)c1 | rabbit mitochondrial calpain | enzyme activity | renal proximal tubule cells | 30 µM, 60 min | – | inhibition | ~40% |

Repeated from above:
| SMILES | target or system | test | test system | setting | how to read | measurement | value |
| --- | --- | --- | --- | --- | --- | --- | --- |
| CC(=NNC(N)=S)c1ccc2ccccc2c1.CC(=NNC(N)=S)c1ccc2ccccc2c1.[Cl][Co][Cl] | calf thymus DNA | fluorescence competition | – | together with: ethidium bromide | – | apparent binding constant | 3980 M⁻¹ |
| CC[C@H](C)[C@H](NC(=O)[C@@H](NC(=O)[C@@H](NC(=O)[C@H](CCCNC(=N)N)NC(=O)[C@@H](N)CCCCN)C(C)C)C(C)C)C(=O)N[C@@H](CC(N)=O)C(=O)N[C@@H](CCCCN)C(=O)N[C@@H](CC(=O)O)C(=O)N[C@H](C(=O)O)[C@@H](C)O | Mamu-A2*01:02 (Chinese rhesus macaque) | MHC binding, purified MHC | – | – | – | IC50 | > 20000 nM |
| Cc1ccc(C(C)C)cc1.F[P-](F)(F)(F)(F)F.[Cl][Ru-]1[NH2+]CC[NH2+]1 | calf thymus DNA | thermal denaturation | – | 0.5 equivalents per DNA, 1 h, pH 7.39, 25 °C, 50 mM NaClO4 | – | delta Tm | -0.6 °C |
| CC1CCCCCCCCCCCCC(=O)C1 (stereo not shown) | odorant-binding protein 3 (Manis javanica) | competitive binding | – | pH 7.4 | – | IC50 | 2230 ± 800 nM |
